Experimental data from different studies.
Parts stem from different laboratories: compare values within a part only. Positions count from the first letter of the parent shown.

Study 1
Target: Fragile X messenger ribonucleoprotein 1, C-terminal low-complexity region (Fmr1, Mus musculus, UniProt P35922)
Technique: RNA Bind-n-Seq
Molecule type: RNA
Medium: in vitro
Concentration: 200 nM
Setting: whole 134-nt RNA, ends assumed
With: 150 mM LiCl
Relative to: input library
Reading: higher = stronger binding
Library: 7-deaza-guanosine replaces G
All sequences stand within: GGGAGUUCUACAGUCCGACGAUC … UGGAAUUCUCGGGUGUCAAGG
Strand	log2 enrichment
AGUCCUGUGCUACACAUCGUAUGUACCGAAUCGGGUGGGUUUUUUUGGGAAAAAGGGAAAGUAUUAUGUUACGCCGUUCGGAUCUGCACU	-1.3
GUCCUGUGCUACACAUCGUAUGUACCGAAUCGGGGCCCCCGGCCCCCGGGGCCCCCGGAAAGUAUUAUGUUACGCCGUUCGGAUCUGCAC	-2.92
UCCUGUGCUACACAUCGUAUGUACCGAAUCGGGGUUUUUUUGGGGUUUGGGGUUUGGGGAAAGUAUUAUGUUACGCCGUUCGGAUCUGCA	-0.8
UCCUGUGCUACACAUCGUAUGUACCGAAUCGGCCCCCCGGGCCCCCCGGGCCCCCCGGGAAAGUAUUAUGUUACGCCGUUCGGAUCUGCA	-0.734
ACCAUGCAGGUGGGCAUCUUUGGGAACUGGGGCAAGGGGGGGAUAGGGAGGGGGGUAACACUUUGGGAACAGGUGGUCCCAGGUCGUUUC	1.37
UUAUUGAACUGACAAGGUCCUCCCUGUGUUGUAGCAAGGACCAGACUGGCUUGAGCUCUCUGAGAUGACCGAGCAGCCAGACUAUGACCU	-0.0361
CCUCAAGUCCUGUGCUACACAUCGUAUGUACCGAAUCGGGGAGGGGAGGGAGGAAAGUAUUAUGUUACGCCGUUCGGAUCUGCACUUCCA	-1.23
UGGGAGGUGGAUUUUGUUUAUUUUUUUAGCUCAUUUCCAGGGGUGGGAAUUUUUUUUUAAUAUGUGUCAUGAAUAAAGUUGUUUCUGAAA	-0.163
AGUCCUGUGCUACACAUCGUAUGUACCGAAUCGGGAAAAAGGGUUUGGGAAAAAGGGAAAGUAUUAUGUUACGCCGUUCGGAUCUGCACU	-2.44
UCCUCAAGUCCUGUGCUACACAUCGUAUGUACCGAAUCGGGGAGGAGGAGGAAAGUAUUAUGUUACGCCGUUCGGAUCUGCACUUCCAGC	-2.06
UGUGCUACACAUCGUAUGUACCGAAUCGGGGUUUUUGGGGAAAAAAAGGGGUUUUUUUGGGGAAAGUAUUAUGUUACGCCGUUCGGAUCU	-0.982

Study 2
Target: Interferon regulatory factor 5, full length, phosphomimetic (IRF5, Homo sapiens, UniProt Q13568-2, residues 1-514, S451D/S453D/S456D/S462D)
Technique: protein-binding microarray
Molecule type: double-stranded DNA, one strand shown
Medium: in vitro
Concentration: 940 nM top
Setting: 60-bp whole probe
With: salmon DNA 0.4 mg/ml
Relative to: random background probes
Reading: higher = stronger binding
All sequences stand within: GCCTAGCAC … GTCTTGATTCGCTTGACGCTGCTG
Strand	fitted relative affinity [z-score]
TCAGCTCTTTCGTTACTTACTGTGCTA	2.11
TAGCTTCTCAATTAAAAAAAGTGCTAG	0.596
TGAGGACTGGGGTTTCGGTTAGTGCTA	6.04
TCACCTCTGTCATTTTCACTGTGCTAG	1.42
ATAGGTTTCCTTCTCCTTTAGTGCTAG	1.87
TCAGCTTTCTTTATGTAACTGTGCTAG	0.604
TTAGATTACGGGTTTCGATTAGTGCTA	5.39
ATTTTTCTAATTTACTTTGGGTGCTAG	0.566
GACGGTCTCGGTGTCGGGACGTGCTAG	2.79
GACGGACTGGGGTATCGCGACGTGCTA	-0.0393
CCTAGTTGTACTTTCTATCTGTGCTAG	1.05
GACGATTTCAGTATCGCGACGTGCTAG	0.874
GACGGTCTCTGTTTCGGGACGTGCTAG	2.71
TTAGATTTCAATTCCGATTAGTGCTAG	0.54
TCATTTCTCAACCATTTTACTGTGCTA	1.61
ATTTTAATCACATATACACTGGTGCTA	0.415
TTAGGTTCCGGTTTCGGTCAGTGCTAG	9.12

Study 3
Target: CCNA1, cyclin fold, Cln2 fusion (human)
Technique: yeast growth competition, sequencing
Medium: yeast
Setting: weak parent motif
Relative to: not given
Reading: higher = stronger binding
Starting sequence: CDC6 docking peptide (human); TLKGRRLVFDNQL; partner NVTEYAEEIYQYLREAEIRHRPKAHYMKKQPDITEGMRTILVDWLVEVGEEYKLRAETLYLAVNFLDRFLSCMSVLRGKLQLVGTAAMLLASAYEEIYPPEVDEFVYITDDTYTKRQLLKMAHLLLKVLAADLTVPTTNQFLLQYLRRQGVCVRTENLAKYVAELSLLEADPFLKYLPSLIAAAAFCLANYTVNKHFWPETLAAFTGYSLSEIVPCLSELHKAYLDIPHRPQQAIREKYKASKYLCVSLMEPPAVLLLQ
Substitution	normalised enrichment score
TLCGRRLVFDNQL [K3C]	0.212
TLKDRRLVFDNQL [G4D]	0.41
TLKARRLVFDNQL [G4A]	0.236
TLKGRRVVFDNQL [L7V]	0.253
VLKGRRLVFDNQL [T1V]	0.257
TLKGRVLVFDNQL [R6V]	0.441
TLKGPRLVFDNQL [R5P]	0.197
TLKGRQLVFDNQL [R6Q]	0.175
TLKGRRLVWDNQL [F9W]	0.697
TLLGRRLVFDNQL [K3L]	0.381
TLIGRRLVFDNQL [K3I]	0.511
TLKGRRLVFDNQP [L13P]	0.338
TLKGRRLGFDNQL [V8G]	0.201
TLKGRRLVFVNQL [D10V]	-0.202
TLKGRRIVFDNQL [L7I]	0.655
TLKRRRLVFDNQL [G4R]	0.0178
TLKGERLVFDNQL [R5E]	-0.219
TLKGRRLVFDNQT [L13T]	-0.117
TLKGRRLVFDWQL [N11W]	0.727
TLKHRRLVFDNQL [G4H]	0.397
TLKGRFLVFDNQL [R6F]	0.117
TLKGRRLVHDNQL [F9H]	-0.0271
TNKGRRLVFDNQL [L2N]	0.037
TLKGRRLVTDNQL [F9T]	0.262
TEKGRRLVFDNQL [L2E]	-0.256

Study 4
Target: ABI1, truncated, D143A, DHFR fusion (Arabidopsis thaliana)
Technique: DHFR PCA, deep sequencing
Medium: yeast
Setting: methotrexate growth selection, single substitutions
With: (+)-ABA 0.032 µM
Relative to: wild-type fitted maximum
Reading: higher = stronger binding
Starting sequence: PYL1, truncated, DHFR fusion (Arabidopsis thaliana); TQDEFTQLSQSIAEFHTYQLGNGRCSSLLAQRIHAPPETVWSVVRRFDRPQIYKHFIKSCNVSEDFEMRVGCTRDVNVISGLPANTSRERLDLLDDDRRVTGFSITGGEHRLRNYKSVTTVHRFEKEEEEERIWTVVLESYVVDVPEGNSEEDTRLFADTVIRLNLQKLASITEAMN
Substitution	relative binding score [%]
L138M	7.61
K168Y	2.84
D159L	-9.08
P146G	7.33
E125W	10.6
Y115S	4.54
H34D	39.3
T17E	2.74
A30K	9.3
T173Y	-9.27
L156F	0.458
L169F	-6.07
D144H	-5.39

Study 5
Target: TAR DNA-binding protein 43, full length, His tag (TARDBP, Homo sapiens, UniProt Q13148, residues 1-414)
Technique: RNA Bind-n-Seq
Molecule type: RNA
Medium: in vitro
Concentration: 20 nM
Setting: 6-mer, flanks averaged, single round
With: 150 mM KCl
Relative to: input library
Reading: higher = stronger binding
Strand	6-mer enrichment (R)
UACUGU	0.632
CAGCAG	0.973
GAUUGA	0.826
UAGAGU	0.862
GACAAC	0.725
CCCUCG	0.636
CUGCAU	0.647
GGCUUC	0.844
AUUUUU	0.781
AGUAAC	0.635
UUAGAU	0.59
GUGCUA	0.844
GCGGUC	1.34
CUUGUA	0.658
UACUAA	0.641
CUUAAG	0.627
UUAGCU	0.594
CCACCC	0.645
CCGAGG	1.63
AGAAAG	1.02
GCGGUU	1.25

Study 6
Target: PABPC1L2, full length, GST fusion (mouse, UniProt A0ABA7IW68)
Technique: RNAcompete
Molecule type: RNA
Medium: in vitro
Concentration: 20 nM
Setting: 7-mer, probes averaged, single round
Relative to: mean of 7-mers
Reading: higher = stronger binding
Residues (chain): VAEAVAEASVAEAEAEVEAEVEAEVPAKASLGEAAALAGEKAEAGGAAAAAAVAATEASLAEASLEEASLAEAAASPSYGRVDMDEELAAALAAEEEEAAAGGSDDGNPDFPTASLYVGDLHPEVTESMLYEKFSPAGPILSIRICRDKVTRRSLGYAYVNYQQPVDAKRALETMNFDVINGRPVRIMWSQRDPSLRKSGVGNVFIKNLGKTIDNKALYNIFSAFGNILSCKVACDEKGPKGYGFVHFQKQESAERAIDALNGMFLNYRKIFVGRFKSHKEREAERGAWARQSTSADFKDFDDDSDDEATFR
Strand	7-mer Z-score
AUUAAGG	0.189
GCUAUCC	-0.325
GAGGUGG	0.207
GAGACCG	0.066
CAAUUCA	-0.249
AGUACUC	-0.112
AUAAAGU	2.66
CCCUGAA	-0.195
CUACAAA	1.54
UUACGAC	0.0116
UAGAGCU	-0.0156
UGAGGGG	0.24
GGGCGAC	0.434
GAAAACU	2.24
CAUCGCU	-0.447
GGCUUCU	-0.273

Study 7
Target: Histone acetyltransferase KAT6A, winged helix 1, GST fusion (KAT6A, Homo sapiens, UniProt Q92794, residues 1-85)
Technique: protein binding microarray
Molecule type: double-stranded DNA, one strand shown
Medium: in vitro
Concentration: not given
Setting: 8-mer, flanks averaged, mean of 2 arrays, mostly near background
Relative to: not given
Reading: higher = stronger binding
Target sequence (chain): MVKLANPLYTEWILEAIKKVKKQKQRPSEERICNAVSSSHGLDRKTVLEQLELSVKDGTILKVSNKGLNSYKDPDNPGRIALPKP
Strand	E-score
AACCCCGT	0.287
AATCTCCA	-0.145
GAAATCTA	-0.125
ACAGCGAC	0.126
AGAAAATG	-0.275
GGTATACA	0.0596
CACTGGGC	-0.0935
CAGTTCGG	0.145
ATGGTAAC	-0.0991
AATGCATA	-0.148
CACGATAC	-0.101
GTCACCAA	-0.217
GCTGCAGA	-0.137
TAAGGACA	-0.105
CGGCGACC	0.399
CCGGGGTC	0.264
TAGACAGA	-0.16
AACTCCTG	-0.129
AATGAAAC	-0.215
AATCGGTC	0.0819
CTCTTTTA	-0.218
AAAAATGC	-0.0244
AGCAGTCG	-0.0717
GAATCTTA	-0.121

Mixed results
Molecule	target	test	test system	setting	how to read	quantity	result
PhoQ, residues 284 288 289 292 302 303 GNNTDL	PhoP, residues 12 14 15 18 19 FWNTL (Escherichia coli, UniProt P23836)	Sort-seq, item: YFP reporter	E. coli	PhoQ-PhoP variant library, with: 10 µM Mg2+	relative to: high Mg2+ state, higher = stronger signaling	fold induction	4.8

Excerpt of the above (study 6):
Strand	7-mer Z-score
GCUAUCC	-0.325
GAGGUGG	0.207
GAGACCG	0.066
CAAUUCA	-0.249
AGUACUC	-0.112
AUAAAGU	2.66
CCCUGAA	-0.195
CUACAAA	1.54
UUACGAC	0.0116
UAGAGCU	-0.0156
UGAGGGG	0.24
